Results pooled from the literature.
Lines come from different studies, so protocols differ. Numbers after ± are the reported error.

The tissue uptake of `O=C(O)CC[C@H](NC(=O)N[C@@H](CCCCNC(=O)[C@H](Cc1ccc2ccccc2c1)NC(=O)CCCCCNC(=O)CN1CCN(CC(=O)O)CCN(CC(=O)O)CCN(CC(=O)O)CC1)C(=O)O)C(=O)O` [gallium-68 labelled] is reported as 1.8 ± 0.08 %ID/g (gamma counting; mouse, PC-3 xenograft, muscle; intravenous, 3.7 MBq, 2 h).
The AUC of `COc1cccc2c1C(=O)c1c(O)c3c(c(O)c1C2=O)C[C@@](O)(C(=O)CO)C[C@@H]3O[C@H]1C[C@H](NC(=O)[C@@H]2CCCN2C(=O)CN)[C@H](O)[C@H](C)O1` is reported as 0.1 µM·h (healthy mouse, plasma; intravenous, 23.6 mg/kg PhAc-ALGP-Dox).
`CC(C)C[C@H](NC(=O)C[C@H](O)[C@H](CC(C)C)NC(=O)[C@H](Cc1c[nH]cn1)NC(=O)CNC(=O)[C@@H](NC(=O)[C@H](C)NC(=O)[C@H](Cc1c[nH]c2ccccc12)NC(=O)[C@H](CCC(N)=O)NC(=O)[C@@H](Cc1ccccc1)NC(=O)COCCOCCNC(=O)CCC(C(=O)O)N1CCN(CC(=O)O)CCN(CC(=O)O)CCN(CC(=O)O)CC1)C(C)C)C(N)=O` (some centres unmarked) [lutetium-177 labelled] has a tissue uptake of 0.03 ± 0.02 %ID/g (BALB/c nu/nu mice, brain; intravenous, 750 pmol, 1 h, with: PA 300 µg).
`CC(C)[C@H](NC(=O)[C@H](Cc1ccc(O)cc1)NC(=O)[C@H](Cc1ccc(O)cc1)NC(=O)[C@@H]1CCCN1C(=O)[C@H](CCC(=O)O)NC(=O)[C@H](CCC(=O)O)NC(=O)[C@H](Cc1c[nH]c2ccccc12)NC(=O)[C@@H]1CCCN1C(=O)[C@@H](NC(=O)[C@H](CCC(N)=O)NC(=O)c1ccc2c(c1)C(=O)OC21c2ccc(O)cc2Oc2cc(O)ccc21)C(C)C)C(=O)N[C@H](C(=O)N[C@@H](CCCCN)C(=O)N[C@@H](CCCCN)C(=O)N[C@@H](CO)C(=O)N[C@@H](CO)C(=O)NCC(=O)NCC(N)=O)C(C)C` has a plasma concentration of 1660 ng/mL (measured: total compound; human, plasma; intravenous infusion, 189.6 mg, 1 h).
`C[C@@H](O)[C@@H](CO)NC(=O)[C@@H](CCCNC(=N)N)NC(=O)[C@@H]1CCCN1C(=O)[C@@H]1CSSC[C@H](NC(=O)[C@H](Cc2ccccc2)NC(=O)CN2CCN(CC(=O)O)CCN(CC(=O)O)CCN(CC(=O)O)CC2)C(=O)N[C@@H](Cc2ccc(O)cc2)C(=O)N[C@@H](Cc2ccccc2)C(=O)N[C@@H](CCC(N)=O)C(=O)N[C@@H](CC(N)=O)C(=O)N1` [gallium-68 labelled] has a radiochemical purity of > 99% (PBS; 3 h, 37 °C).
`CC(C)C[C@H](NC(=O)C[C@H](O)[C@H](CC(C)C)NC(=O)[C@H](Cc1c[nH]cn1)NC(=O)CNC(=O)[C@@H](NC(=O)[C@H](C)NC(=O)[C@H](Cc1c[nH]c2ccccc12)NC(=O)[C@H](CCC(N)=O)NC(=O)[C@@H](Cc1ccccc1)NC(=O)COCCOCCNC(=O)CN1CCN(CC(=O)O)CCN(CC(=O)O)CCN(CC(=O)O)CC1)C(C)C)C(N)=O` [lutetium-177 labelled] has a tissue uptake of 0.06 ± 0.01 %ID/g (female BALB/c nu/nu mice, liver; intravenous, 50 pmol, 24 h).
Under “volume of distribution”, `CC(C)[C@H](NC(=O)[C@@H](NC(=O)CCCc1cn(CC(O)CN2CCN(CC(=O)O)CCN(CC(=O)O)CCN(CC(=O)O)CC2)nn1)[C@@H](C)O)C(=O)N[C@@H](CCCNC(=N)N)C(=O)N[C@H](C(=O)N[C@@H](CO)C(=O)N[C@@H](C)C(=O)N[C@@H](CC(=O)O)C(=O)O)[C@@H](C)O` (some centres unmarked) is recorded as 0.177 ± 0.041 L/kg (healthy male humans, plasma; intravenous, 0.04 mmol/kg).
`COc1cccc2c1C(=O)c1c(O)c3c(c(O)c1C2=O)C[C@@](O)(C(=O)CO)C[C@@H]3O[C@H]1C[C@H](NC(=O)[C@@H]2CCCN2C(=O)CNC(=O)[C@@H](N)CC(C)C)[C@H](O)[C@H](C)O1` has an AUC of 1.32 µM·h (healthy mouse, plasma; intravenous, 849.5 mg/kg PhAc-ALGP-Dox).

For quick reference, copied from above:
Under “volume of distribution”, `CC(C)[C@H](NC(=O)[C@@H](NC(=O)CCCc1cn(CC(O)CN2CCN(CC(=O)O)CCN(CC(=O)O)CCN(CC(=O)O)CC2)nn1)[C@@H](C)O)C(=O)N[C@@H](CCCNC(=N)N)C(=O)N[C@H](C(=O)N[C@@H](CO)C(=O)N[C@@H](C)C(=O)N[C@@H](CC(=O)O)C(=O)O)[C@@H](C)O` (some centres unmarked) is recorded as 0.177 ± 0.041 L/kg (healthy male humans, plasma; intravenous, 0.04 mmol/kg).
